Measurements gathered from unrelated publications.
Numbers after ± are the reported error.

| Compound | test | test system | setting | how to read | quantity | value |
| --- | --- | --- | --- | --- | --- | --- |
| CCO[C@H]1CCN(Cc2c(OC)cc(C)c3[nH]ccc23)[C@H](c2ccc(C(=O)O)cc2)C1 | – | PNH patients, active haemolysis | oral, 25 mg, 4 weeks, treatment | – | incidence of abdominal discomfort | 0% |
| CC(C)(CC(=O)Nc1scc(C2CC2)c1C(=O)O)c1ccc(F)cc1 | colloidal aggregate formation, dynamic light scattering | 50 mM potassium phosphate buffer | 200 µM, pH 7.0, 1% DMSO | higher = more aggregation | DLS scattered light intensity | 827000 counts/s |
| CNC(=O)c1ccc(-c2cnc3ncc(Cc4ccc5ncccc5c4)n3n2)cc1F | – | Japanese patients | oral, 400 mg, grade 3/4 | – | Pyrexia dose reduction/interruption | 0% |
| Cc1c(-c2ccc(N3CCc4cccc(C(=O)Nc5nc6ccccc6s5)c4C3)nc2C(=O)O)cnn1CC12CC3(C)CC(C)(C1)CC(OCCNCC[C@H](O)CO)(C3)C2 | – | beagle dog, anaesthetised | intravenous infusion, 0.3 mg/kg/min, 120 min | reference: vehicle | PR interval change | 1 ms |
| Cn1c(C(F)(F)F)cc(=O)n(-c2cc(Oc3cccnc3OCC(=O)O)c(Cl)cc2F)c1=O | – | Crl:CD(SD) rats, male, plasma | oral diet, 50 ppm in diet, day 1, 90-day toxicity study | – | AUC(0-24 h) | 1020 ng·h/mL |
| Cc1ccc(NS(=O)(=O)c2ccc(F)cc2O)cc1N1CCOC1=O | colloidal aggregate formation, dynamic light scattering | 50 mM potassium phosphate buffer | 200 µM, pH 7.0, 1% DMSO | higher = more aggregation | DLS scattered light intensity | 787000 counts/s |
| CC1(C)CC[C@]2(NC(=O)C(C)(F)F)CC[C@]3(C)[C@H](C(=O)C=C4[C@@]5(C)C=C(C#N)C(=O)C(C)(C)[C@@H]5CC[C@]43C)[C@@H]2C1 | – | human, plasma | oral, dose not given, with: efavirenz | reference: without efavirenz | AUC(0-tlast) decrease | 48% |
| COc1ccc([C@@H](O)c2cc(-c3ncnc4cc(N5CCOCC5)ccc34)c(F)cc2Cl)nn1 | – | human, plasma | oral, 100 mg twice daily, single dose, geometric mean | – | AUC(0-12) | 1370 ng·h/mL |
| CO/N=C(\C(=O)N[C@@H]1C(=O)N2C(C(=O)[O-])=C(C[N+]3(C)CCCC3)CS[C@H]12)c1csc(N)n1 | – | human plasma | concentration not given, 8 months, -80 °C | – | deviation from nominal concentration | -11.2% |
| Cn1ncc(S(=O)(=O)NC2(c3cc(F)cc(Br)c3)CC2)c1C(=O)O | colloidal aggregate formation, dynamic light scattering | 50 mM potassium phosphate buffer | 200 µM, pH 7.0, 1% DMSO | higher = more aggregation | DLS scattered light intensity | 435000 counts/s |
| O=C(Nc1nc2cccc(-c3ccc(CN4CCS(=O)(=O)CC4)cc3)n2n1)C1CC1 | item: non-infective cystitis | rheumatoid arthritis patients | oral, 300 mg once daily, 4 weeks, any relatedness | – | treatment-emergent adverse events | 5% |
| O=S(=O)(Nc1c(CO)ccc(Cl)c1Cl)c1cccc(Cl)c1O | colloidal aggregate formation, dynamic light scattering | 50 mM potassium phosphate buffer | 200 µM, pH 7.0, 1% DMSO | higher = more aggregation | DLS scattered light intensity | 628000 counts/s |
| CCN1/C(=C/C(C)=O)Sc2ccc(F)cc21 | – | cynomolgus monkey | oral, 10 mg/kg, 24 h post-dose | reference: pre-dose | systolic blood pressure change | 107 ± 5.5% |
| Cc1cc(-c2nccc3c2ccn3CC(=O)Nc2ccc(-c3cnccn3)cn2)ccn1 | – | human | 20 mg once daily, multiple ascending dose | – | subjects with Photophobia adverse event | 0% |
| CNCc1ccc(-c2[nH]c3cc(F)cc4c3c2CCNC4=O)cc1 | – | patients | oral, 480 mg twice daily, all grades | – | asthenia/fatigue incidence | 55.6% |
| Cn1cnc2c(F)c(Nc3ccc(Br)cc3Cl)c(C(=O)NOCCO)cc21 | population PK model | human, plasma | oral, nonlinear absorption model, fasted | – | Vmax of absorption | 310000 nmol/h |
| COc1ccnc(C(=O)NCC(=O)O)c1O | soil adsorption | tested soils | geometric mean | – | Freundlich coefficient KF | 9.56 mL/g |
| CC[C@H](C)[C@H](NC(=O)[C@H](Cc1ccccc1)NC(=O)[C@H](CCC(=O)O)NC(=O)[C@H](CCCCNC(=O)COCCOCCNC(=O)COCCOCCNC(=O)CC[C@H](NC(=O)CCCCCCCCCCCCCCCCC(=O)O)C(=O)O)NC(=O)[C@H](C)NC(=O)[C@H](C)NC(=O)[C@H](CCC(N)=O)NC(=O)CNC(=O)[C@H](CCC(=O)O)NC(=O)[C@H](CC(C)C)NC(=O)[C@H](Cc1ccc(O)cc1)NC(=O)[C@H](CO)NC(=O)[C@H](CO)NC(=O)[C@@H](NC(=O)[C@H](CC(=O)O)NC(=O)[C@H](CO)NC(=O)[C@@H](NC(=O)[C@H](Cc1ccccc1)NC(=O)[C@@H](NC(=O)CNC(=O)[C@H](CCC(=O)O)NC(=O)C(C)(C)NC(=O)[C@@H](N)Cc1cnc[nH]1)[C@@H](C)O)[C@@H](C)O)C(C)C)C(=O)N[C@@H](C)C(=O)N[C@@H](Cc1c[nH]c2ccccc12)C(=O)N[C@@H](CC(C)C)C(=O)N[C@H](C(=O)N[C@@H](CCCNC(=N)N)C(=O)NCC(=O)N[C@@H](CCCNC(=N)N)C(=O)NCC(=O)O)C(C)C | QT interval corrected for heart rate, 12-lead Holter ECG | healthy human subjects | subcutaneous, 1.5 mg once weekly, 36 h post-dose, steady state | reference: placebo, time-matched baseline | placebo-subtracted change in QTcI | -6.5 ms |
| CC(C)(C(=O)N1CCOc2c(C#N)cncc2C1)C(F)F | item: Dizziness | human | oral, 10 mg, CSF pharmacokinetic cohort | – | subjects with adverse event | 0% |
| O=C1CC[C@H](N2Cc3cc(N4CCN(CC5CCN(c6ccc([C@@H]7c8ccc(O)cc8CC[C@@H]7c7ccccc7)cc6)CC5)CC4)ccc3C2=O)C(=O)N1 | – | EpiIntestinal microtissues incubation buffer | 40 µM, 3 h | – | buffer concentration | 19.7 µM |
| CC(C)[C@H](N)C(=O)NCCCS(=O)(=O)O | – | human both sexes, plasma | oral, 256.5 mg twice daily days 2-7, day 7, fed capsule | – | AUC(0-12) | 11100 ng·h/mL |
| O=C(Nc1ccc(OC(F)(F)Cl)cc1)c1cnc(N2CC[C@@H](O)C2)c(-c2ccn[nH]2)c1 | – | human patients | oral, dose not given, dose-finding, any grade | reference: records | amylase increase incidence | 6.5% |
| CCOc1c([C@H](C)n2nc(C)c3c(N)ncnc32)cc(Cl)c(F)c1[C@@H]1CNC(=O)C1 | item: ΔQTcF > 60 ms | previously treated B-cell malignancy | oral, 20 mg once daily, baseline QTcF ≤450 ms | – | patients with high heart rate | 2.9% |

| Compound | test | test system | setting | how to read | quantity | value |
| --- | --- | --- | --- | --- | --- | --- |
| CCn1cc(C(=O)N2CCOCC2)c(=O)c2cc(NC3Cc4ccccc4C3)cnc21 | – | human, fed | oral tablet, 300 mg single dose, arithmetic mean | – | AUC(0-inf) | 14200 ng·h/mL |
| NCCONC(=O)[C@@H]1CC[C@@H]2CN1C(=O)N2OS(=O)(=O)O | – | healthy Chinese male subjects | intravenous, 2 g | – | number of Moderate TRAE events | 0 |
| O=C(O)CCCCCCCCCCCCC(=O)O | – | human, plasma | endogenous baseline diurnal | – | daily mean concentration | 83.1 ± 13.9 nM |
| OC[C@H]1O[C@@H](c2ccc(Cl)c(Cc3ccc(O[C@H]4CCOC4)cc3)c2)[C@H](O)[C@@H](O)[C@@H]1O | population PK model | human, plasma | oral | reference: male patients, female relative to male | difference in V3/F | 83% |
| COc1cc2c3c(n(CCCNCCO)c(=O)c2cc1OC)-c1nc2c(cc1C3=O)OCO2 | – | male CD1 mouse, plasma | intravenous, 1 mg/kg | – | Vss | 9.62 L/kg |
| O=C1NCCc2nc(OCc3cccc(F)c3)ccc21 | item: Vasodilatation | Sprague-Dawley rat, male | oral, 100 mg/kg, 1 h, score 0 none to 2 full | direction not given | Irwin test score | 0 |
| Cc1cc(-c2nnc(N)nc2-c2ccc(F)cc2)cc(Cl)n1 | item: psoriasiform dermatitis, all grades | male IO-naive mCRPC patients | oral, dose not given | – | incidence of AE, immune-mediated, treatment-related | 0% |
| CCCCC1=NC2(CCCC2)C(=O)N1Cc1ccc(-c2ccccc2S(=O)(=O)Nc2noc(C)c2C)c(COCC)c1 | – | healthy adult volunteers, plasma | oral, 800 mg, single dose, fed, crushed tablet | – | Cmax | 17300 ng/mL |
| CCn1nnc(Br)c1CNS(=O)(=O)c1cccc(Cl)c1O | colloidal aggregate formation, dynamic light scattering | 50 mM potassium phosphate buffer | 200 µM, pH 7.0, 1% DMSO | higher = more aggregation | DLS scattered light intensity | 996000 counts/s |
| CCOCc1nc(O)c(-c2nnc(Cc3ccc(Cl)cn3)o2)c(O)c1-c1c(OC)cccc1OC | – | anaesthetised rat, plasma | intravenous infusion, 1 µg/kg/min, 15 min | – | plasma concentration | 95 ± 5 nM |
| Cc1ccc(C(=O)N(CCCN)C(c2nc3snc(C)c3c(=O)n2Cc2ccccc2)C(C)C)cc1 (stereo not shown) | stomatitis grade ≥3 (CTCAE) | human patients | intravenous, 18 mg/day | – | patients with adverse event | 50% |
| Cc1cnc(N2CC3(CCOCC3)C2)c(C(=O)Nc2ccc(C(=O)N3CCc4cc(C(=O)Nc5c(C)cccc5F)sc4-c4ccccc43)cc2)c1 | – | human, nasal epithelial lining fluid | inhaled, 5 mg twice daily, 12 h | – | concentration | 17700 ng/mL |
| COc1cccc(OC)c1-c1cc(C(=O)NC2(C(=O)O)C3CC4CC(C3)CC2C4)nn1-c1ccc(C(=O)N(C)CCCN(C)CCCN(C)C(=O)CN2CCN(CC(=O)[O-])CCN(CC(=O)[O-])CCN(CC(=O)[O-])CC2)cc1C(C)C.[177Lu+3] (stereo not shown) | – | mouse HT-29 xenograft | 24 h, biodistribution | reference: tumour over large intestine | tumour-to-large intestine ratio | 61.3 |
| Cc1ccc([C@@H]2O[C@H](CO)[C@@H](O)[C@H](O)[C@H]2O)cc1Cc1ccc(-c2ccc(F)cc2)s1 | – | Japanese type 2 diabetes patients | 400 mg, day 1, 24 h urine collection | reference: baseline | urinary chloride excretion change | 27.1 mEq |
| CNC(=O)c1ccc(-c2cnc3ncc(Cc4ccc5ncccc5c4)n3n2)cc1F | item: Dyspnea, all grades | hepatocellular carcinoma patients | oral, 600 mg twice daily, expansion cohort, any causality | – | patients with adverse event | 9% |
| C[C@]1(Cn2ccnn2)[C@H](C(=O)O)N2C(=O)C[C@H]2S1(=O)=O | – | human whole blood | concentration not given, 24 h, 4 °C | – | deviation from nominal concentration | 7.8% |
| C[C@H]1C=C(Cc2ccccc2)C(=O)O1 | soil adsorption | clay loam soil | pH 6.8, organic carbon 0.5 % | – | Freundlich coefficient KF | 1.5 mL/g |
| Cl.[2H]C([2H])([2H])CC(=O)c1cnc(NC(=O)C2CC2)cc1Nc1cccc(-c2ncn(C([2H])([2H])[2H])n2)c1OC | – | human, fasted, plasma | oral, 25 mg, single dose, liquid formulation | – | CL/F | 13.5 L/h |
| CNC(=O)c1cc(Oc2ccc(NC(=O)N(c3ccc(Cl)c(C(F)(F)F)c3)[C@@H]3O[C@H](C(=O)O)[C@@H](O)[C@H](O)[C@H]3O)cc2)ccn1 | – | mouse, wild type, plasma | oral, 10 mg/kg, without rifampin, geometric mean | – | AUC(0-7.5 h) | 3970 ng·h/mL |
| CCc1ccc(-c2ccc(-c3cc(F)c(F)c(F)c3)c(F)c2)cc1 | item: compound | human pregnant women, female fetuses, maternal serum | dose not given, paired maternal-cord samples, mean | – | concentration | 0.73 ng/mL |
| C[C@@H](Nc1cc(F)cc(F)c1)c1cc(C(=O)N(C)C)cc2c(=O)cc(N3CCOCC3)oc12 | item: Vomiting | advanced solid tumour patients | oral, dose not given, dose expansion | – | patients discontinuing for AE | 0% |
| COc1cc(C(=O)NC2CCN(C)CC2)c(F)cc1Nc1ncc(C(F)(F)F)c(Oc2cccc3c2C(=O)N(C)C3)n1 | – | human patients, plasma | oral, 10 mg once daily repeated, geometric mean | – | dose-normalised AUC(tau) at steady state | 81.6 nmol·h/L per mg |
| O=C(Nc1cnccc1Cl)N1CCN(Cc2ccc3c(c2)OC(F)(F)O3)CC1 | item: Somnolence | human healthy young women | 100 mg, multiple dose | – | adverse event incidence | 16.7% |
